Results of several laboratories.
Each numbered part is a random draw from the data of one study; scales do not carry over between parts.

Block 1
Target: RING finger protein unkempt homolog, zinc fingers 1-6, GST-SBP tag (UNK, Homo sapiens, UniProt Q9C0B0, residues 30-357)
Technique: RNA Bind-n-Seq
Molecule type: RNA
Sample: in vitro
Tested at: not given
Setting: RNA with constant flanks, ends assumed
Baseline: input RNA pool
Reading: higher = stronger binding
All sequences stand within: GGGAGUUCUACAGUCCGACGAUC … CAACAGAGGAUUGAGCAUCA
Construct (chain): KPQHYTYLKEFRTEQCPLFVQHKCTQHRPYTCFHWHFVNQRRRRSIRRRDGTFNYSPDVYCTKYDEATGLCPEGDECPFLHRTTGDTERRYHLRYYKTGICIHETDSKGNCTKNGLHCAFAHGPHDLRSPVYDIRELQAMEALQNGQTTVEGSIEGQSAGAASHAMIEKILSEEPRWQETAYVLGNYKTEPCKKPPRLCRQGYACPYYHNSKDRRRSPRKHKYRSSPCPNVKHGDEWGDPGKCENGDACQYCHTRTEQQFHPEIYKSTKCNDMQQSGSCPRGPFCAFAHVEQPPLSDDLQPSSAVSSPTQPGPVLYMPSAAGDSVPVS
Strand | bound/input enrichment
CAAGUUCCCUAUAAAUAUGAUUUAUAUGAAAAAACUUUGAAGUACAAUUCAGACUUACUCCGCAGCCGAAACUGUGUAAGAAAGAAAGGAGACGGGUGUGGUGGAUUUGGGGAACCACUU | 0.282 ratio
AUAUAUAUUCACUUGCAUUCAUGCAGAACACAAGCUUUGCUGUACAAAAUGUUGUGUUUCUCCGUGAUUUUAAAAGGCAUGCUUUGCAUGCAAAGGAAAACCAUUGCAGUUAGUCUUUUC | 0.669 ratio
UCUGCUCGGAAGAUGCGUCUGGGAGAUGCUGUUGAACAGGGUGUGAUUAACAACUCAGUAUCCGGCUAUUUUAUUGGCCGCAUCUACCUCUACCUCACGAAGGUUGGAAUAUCUCCUGAU | 0.0711 ratio
AGAUAUUUUGAAGAAAAAAAAAAUUCAAACAGAUUUAUCAAGGGUAACCAGCUUGGAGUCCCGCAAUUUUGCCAAUGUGCUUACCAAUUUGGGGGCUUGUUUUUCUUCCCUUCCUUACAU | 0.314 ratio
AAUGCAGUAGAGGCCAUUCAUAGAGCUGUGGAAUUCAAUCCUCAUGUGCCAAAAUACCUACCCGAAAUGAAAAGCUUAAUCCUACCCCCAGAACAUAUCCUGAAGAGAGGAGACAGUGAA | 0.628 ratio
AUUUUCUUUAUGUGUGAAGACACAAAGUAUGGGGGAAGACAGCAAUCAAAACUAACUUUUUGCCGACCGCCAUUUCAUUUCUUUAAACUGUUUCAACGCCAAUAUGUAUUCUACAAAAGA | 0.257 ratio
CUGGUGUGCCAGGAAAGUACUAAAUUUAAGAAUGUCUGGACAACUCAUUCCAGGUCACCUACCGCCUAUGAGAGAGGAAGAAUAUAUUUUGACAAUUAUCGGCGCUGUGUCAGCAGUGUU | 0.427 ratio
UAUGGUUAUGAAAAGCCAGAGGAACGCUGGCUCCCUAUCCACACUGUGGAAACCAUCAUGAUCCGUGUCAUUUCUAUGCUGGCAGACCCUAAUGGAGACUCACCUGCUAAUGUUGAUGCU | 0.77 ratio
AAAGAGAAUGGAGAAGUAAAGAUUUUGCUGAAAAGUGGGAAGGAGAAACCAAAAACAAAUACCGAAGACUUACAAAUUAAAAAGGUAAAGAAGAAAAAGAAAAAGAAACACAAAGAGAAU | 0.625 ratio
UUCAUCUUGAGGUGGCCAAUAUGGGGAUGUGGAAUUUUUAUACAAGUUAUAAGUGUUUGGCACCGUACUUUUGGUACAUUGUGGCUUCAAAAGGGCCAGUGUAAAACUGCUUCCAUGUCU | 0.121 ratio
AACUGUAUCUGUGAUAUUGAAAAUUGUUCCAACAUGGCACCCCUCUACAGUGACUCUUACUCCGUCUUCUGGGCCAUUUUCAACUUGGUGACCUUUGUGGUAAUGGUGGUUCUCUAUGCU | 0.552 ratio

Block 2
Target: Interferon regulatory factor 5, full length, phosphomimetic (IRF5, Homo sapiens, UniProt Q13568-2, residues 1-514, K96S/S451D/S453D/S456D/S462D)
Technique: protein-binding microarray
Molecule type: double-stranded DNA, one strand shown
Sample: in vitro
Tested at: 250 nM
Setting: 60-bp whole probe
Added: salmon DNA 0.4 mg/ml
Baseline: random background probes
Reading: higher = stronger binding
All sequences stand within: GCCTAGCAC … GTCTTGATTCGCTTGACGCTGCTG
Strand | log fluorescence [z-score]
TATTCTCTACTTGTGTCTAGGTGCTAG | 0.697
CTAGGTTCCCTTTTCCTTTAGTGCTAG | 0.226
TTAGGACTGGGGCATCGGTTAGTGCTA | -0.0258
TACGGTCTCCTACTGCTGACGTGCTAG | -0.245
TCAGCTTTCTTTTTGCAACTGTGCTAG | 1.91
GACGGACTGCGTTTCCTGACGTGCTAG | -0.542
GACGGTGTCCTTATCCTGACGTGCTAG | -0.29
TCAGTTCCCTATTTAAGACTGTGCTAG | 0.517
TTAGAACTGGGTATCGGTTAGTGCTAG | 4.82
GACGATCTGGGGTATCGAGACGTGCTA | 0.0463
CTAGTTTTACTTTCTATCTCGTGCTAG | 5.31
GACGAACTGAGTTTCGAGCCGTGCTAG | 3.42
TTAGAACTGGGGTACCGATTAGTGCTA | -0.364
GACGGACTGGGGACTGTGGACGTGCTA | -0.483
GACGATTTCGGGTATCGCGACGTGCTA | 4.05
GCCGGACTGCTACTGCTGACGTGCTAG | -0.727
GACGGTAACGGGACTGGGGACGTGCTA | -0.603
TCACCTATAGGGCCTGACACTGTGCTA | -0.36
GACGGTATCGGACTGGGGTCGTGCTAG | 1.18
ATAGATCTCAGACTGGATTAGTGCTAG | -0.0369
GACGGTATCGACTATCGGGAGGTGCTA | 3.74
GACGGAGTGGGGACTGGGGACGTGCTA | -0.477
GACGCTTCCGGTTTCGGGACGTGCTAG | 5.18
GACGGGATCGACTTTCGGGACGTGCTA | 5.26
TTAGGCTTCCTTATCCTTTAGTGCTAG | -0.0741

Block 3
Target: Histone acetyltransferase KAT6A, both winged helices, GST fusion (KAT6A, Homo sapiens, UniProt Q92794, residues 1-181)
Technique: protein binding microarray
Molecule type: double-stranded DNA, one strand shown
Sample: in vitro
Tested at: not given
Setting: 8-mer, flanks averaged, mean of 2 arrays, mostly near background
Baseline: not given
Reading: higher = stronger binding
Target sequence (chain): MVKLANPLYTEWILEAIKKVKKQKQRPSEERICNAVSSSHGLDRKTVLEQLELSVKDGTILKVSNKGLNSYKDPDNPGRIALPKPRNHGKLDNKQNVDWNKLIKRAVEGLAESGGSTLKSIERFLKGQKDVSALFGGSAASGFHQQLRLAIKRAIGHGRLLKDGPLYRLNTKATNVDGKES
Strand | E-score
AAGGACGT | -0.181
CACTTTAG | -0.177
CGCCTTCA | 0.0942
AACCATTC | 0.0204
TAGCCACA | -0.0462
TATTGACA | 0.0322
GATGGCCC | -0.103
GAGACCTA | -0.0653
CGGATAGC | 0.0885
GGTTTTAA | 0.0109
AGTCTGGG | -0.259
AATCAAAT | 0.0226
ACGTCTAC | -0.0952
AAAGAGGT | -0.216
GTATGCTA | -0.0737
ATACTTAA | -0.196
CCTTTCTC | -0.182
AGAGAGCA | -0.118
ACTGGCCC | -0.251

Block 4
Target: Ras GTPase-activating protein-binding protein 1, C-terminal RGG region (G3BP1, Homo sapiens, UniProt Q13283)
Sequence of UniProt Q13283 (whole entry, looked up): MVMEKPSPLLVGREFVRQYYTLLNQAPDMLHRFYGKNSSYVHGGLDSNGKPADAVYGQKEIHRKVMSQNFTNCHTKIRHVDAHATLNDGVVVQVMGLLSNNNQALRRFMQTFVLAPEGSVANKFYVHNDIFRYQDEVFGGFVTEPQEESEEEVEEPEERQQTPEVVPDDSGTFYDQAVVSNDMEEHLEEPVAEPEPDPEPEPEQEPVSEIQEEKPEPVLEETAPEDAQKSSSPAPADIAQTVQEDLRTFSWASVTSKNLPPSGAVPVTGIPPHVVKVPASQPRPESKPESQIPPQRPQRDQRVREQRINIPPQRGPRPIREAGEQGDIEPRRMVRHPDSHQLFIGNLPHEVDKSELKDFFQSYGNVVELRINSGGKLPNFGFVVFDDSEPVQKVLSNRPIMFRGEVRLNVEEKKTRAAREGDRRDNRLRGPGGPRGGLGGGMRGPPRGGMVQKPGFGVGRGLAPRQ
Technique: RNA Bind-n-Seq
Molecule type: RNA
Sample: in vitro
Tested at: 1 µM
Setting: whole 134-nt RNA, ends assumed
Added: 150 mM KCl
Baseline: input library
Reading: higher = stronger binding
All sequences stand within: GGGAGUUCUACAGUCCGACGAUC … UGGAAUUCUCGGGUGUCAAGG
Strand | log2 enrichment
AAGUCCUGUGCUACACAUCGUAUGUACCGAAUCGGGGAAAAAGGGGUGGGGAGGGGAAAGUAUUAUGUUACGCCGUUCGGAUCUGCACUU | 1.81
UAACUUUAGAGGAGGAUCUGAUGGAUAAGGCAGUGGACGUGGAUUUGGGGAUGGCUAUAAUGGGUAUGGAGGAGGACCUGGAGGUGGCAA | -1
CUGUGCUACACAUCGUAUGUACCGAAUCGGGGUUUUUGGGGUUUUUUUGGGGUUUUUGGGGAAAGUAUUAUGUUACGCCGUUCGGAUCUG | 0.0583
UAACUUUAGAGGAGGAUCUGAUGGAUAUGGCAGUGGACGUGGAUUUGGGGAUAGCUAUAAUGGGUAUGGAGGAGGACCUGGAGGUGGCAA | -0.525
CCUCAAGUCCUGUGCUACACAUCGUAUGUACCGAAUCGGUGGAGGAAAAAGGAAAGUAUUAUGUUACGCCGUUCGGAUCUGCACUUCCAG | -0.702
UGGCCCUGGUGGCAUGCGGGGAGGAAGAGGUGGCCUCAUGGAUCGUGGGGGUCCCGGUGGAAUGUUCAGAGGUGGCCGUGGUGGAGACAG | 1.2
ACCAUGCAGGUGGGCAUCUUUGGGAAGUGGGGCAAGGGGGGGAUAGGGAGGGGGGUAACACUUUGGGUACAGGUGGUCCCAGGUCGUUUC | 1.99
CUCAAGUCCUGUGCUACACAUCGUAUGUACCGAAUCGGUUUGGUUUGGUUUGGGAAAGUAUUAUGUUACGCCGUUCGGAUCUGCACUUCC | -1.38
UGCUGCGGAAGGGCUCUGGCACUCUGUGUGAGGCCUUGCUGAUGGUGCAGGCCUUCCACGCCAACAUCAUCUUCCCCAACAAGCAAGAGC | -0.734
CCUCAAGUCCUGUGCUACACAUCGUAUGUACCGAAUCGGGUGGGUGGGGUGGAAAGUAUUAUGUUACGCCGUUCGGAUCUGCACUUCCAG | 1.17
CAAGUCCUGUGCUACACAUCGUAUGUACCGAAUCGGGAAAAGGAAAAGGGAAAAGGAAAGUAUUAUGUUACGCCGUUCGGAUCUGCACUU | -2.01
CCUGUGCUACACAUCGUAUGUACCGAAUCGGGGUUUUUUUGGGGUUUGGGGAAAAAGGGGAAAGUAUUAUGUUACGCCGUUCGGAUCUGC | 0.232
CUCAAGUCCUGUGCUACACAUCGUAUGUACCGAAUCGGUUUGGAGGAAAAAGGAAAGUAUUAUGUUACGCCGUUCGGAUCUGCACUUCCA | -1.17
GUCCUGUGCUACACAUCGUAUGUACCGAAUCGGGAAAAAAAGGGUUUGGGAAAAAGGGAAAGUAUUAUGUUACGCCGUUCGGAUCUGCAC | -0.585

Repeated from above (block 3):
Strand | E-score
AACCATTC | 0.0204
TATTGACA | 0.0322
CACTTTAG | -0.177
CGGATAGC | 0.0885
TAGCCACA | -0.0462
GATGGCCC | -0.103
AGTCTGGG | -0.259
CCTTTCTC | -0.182
